Published values from different studies.
A part holds a random share of what one study measured. Positions count from the first letter of the parent shown.

Block 1
Target: Interferon regulatory factor 5, full length, phosphomimetic (IRF5, Homo sapiens, UniProt Q13568-2, residues 1-514, S451D/S453D/S456D/S462D)
Technique: protein-binding microarray
Molecule type: double-stranded DNA, one strand shown
Medium: in vitro
Concentration: 940 nM top
Notes: 60-bp whole probe
With: salmon DNA 0.4 mg/ml
Reference: random background probes
Reading: higher = stronger binding
Endpoint: fitted relative affinity
All sequences stand within: GCCTAGCAC … GTCTTGATTCGCTTGACGCTGCTG
TCAGTATTTTTTCTGAAACTGTGCTAG: 0.591 z-score
GACGATTTCGGAACTGGAGACGTGCTA: 0.304 z-score
GACGGTTCCCTTTTCATGACGTGCTAG: 1.03 z-score
GACGGAGTGGGTTTCGGGACGTGCTAG: 2.89 z-score
TCAGGTATTTTTTTGTAACTGTGCTAG: 0.619 z-score
TTATATTTCGGGTATCGATTAGTGCTA: 3.31 z-score
TCACCTCCCTGTTTCCAACTGTGCTAG: 0.801 z-score
TCAGTTTCACTTTCCAAACTGTGCTAG: 10.9 z-score
TTAGGTCTCGCTTTCGGTTAGTGCTAG: 4.92 z-score
GTGATCCGTCCGCCTCAGCCGTGCTAG: -0.164 z-score
CTAGTTTTCATTTTCTGAATGTGCTAG: 1.97 z-score
TCAGGTCTTCACTTGGCACTGTGCTAG: -0.173 z-score
TTAGGTATCGGAATCGGTTAGTGCTAG: 4.43 z-score
TTAGATATCAGTATCGAGTAGTGCTAG: 1.62 z-score
TTAGGTTTCCTATCCCTTTAGTGCTAG: 1.23 z-score

Block 2
Target: Prothrombin, mature alpha-thrombin (F2, Homo sapiens, UniProt P00734)
Technique: aptamer microarray, sandwich
Molecule type: DNA with 2'F-ANA
Medium: in vitro
Concentration: 200 nM
Notes: whole 15-mer aptamer, many near background
With: Cy3 exosite-II aptamer, 400 nM
Reading: higher = stronger binding
Endpoint: mean fluorescence intensity
Sequence: GGTTGGTGTGGTTGG
2'F-ANA at 1 2 4 7 8 9 10 11 14 15: 49.5 a.u.
2'F-ANA at 2 4 5 6 8 11 12 13 14 15: 48.9 a.u.
2'F-ANA at 2 3 4 7 10 12 14 15: 243 a.u.
2'F-ANA at 2 3 5 7 9 12 13 14 15: 55.3 a.u.
2'F-ANA at 5 6 7 8 9 10 12: 51.7 a.u.
2'F-ANA at 3 5 6 7 8 10 12 13: 69.9 a.u.
2'F-ANA at 1 5 6 8 10 11 12 15: 50 a.u.
2'F-ANA at 3 4 7 12 13: 833 a.u.
2'F-ANA at 1 3 4 5 6 10 12 13: 48.6 a.u.
2'F-ANA at 1 2 3 5 6 7 8 9 10 12 13: 49.6 a.u.
2'F-ANA at 1 3 4 5 6 9 10 11 15: 102 a.u.
2'F-ANA at 1 2 3 6 10 12 13: 85.5 a.u.
2'F-ANA at 1 2 3 4 6 7 8 9 10: 81.1 a.u.
2'F-ANA at 3 4 5 7 8 9 14 15: 82.7 a.u.
2'F-ANA at 5 6 8 9 10 12 14 15: 50.8 a.u.
2'F-ANA at 1 5 13 14 15: 44.8 a.u.
2'F-ANA at 1 2 3 5 7 8 10 11 12 14 15: 50.3 a.u.
2'F-ANA at 1 3 5 6 9 14: 55.9 a.u.
2'F-ANA at 1 3 4 6 10 11 13 15: 56.2 a.u.
2'F-ANA at 2 6 7 8 9 10 11 12 13 15: 117 a.u.
2'F-ANA at 1 5 10 11 13 15: 47.1 a.u.
2'F-ANA at 2 4 5 6 8 9 11 14: 50.9 a.u.
2'F-ANA at 1 5 6 9 10 12 13 14 15: 47.3 a.u.

Block 3
Target: Phosphate system positive regulatory protein PHO4, full length, GST-tagged (PHO4, Saccharomyces cerevisiae, UniProt P07270, residues 1-312)
Technique: competition protein-binding microarray
Molecule type: double-stranded DNA, one strand shown
Medium: in vitro
Concentration: 2 µM
Notes: whole 60-bp probe, lowest competitor level
With: Cbf1 competitor, 0.05 µM
Reading: higher = stronger binding
Endpoint: fluorescence intensity
All sequences stand within: … GTCTTGATTCGCTTGACGCTGCTG
Construct (chain): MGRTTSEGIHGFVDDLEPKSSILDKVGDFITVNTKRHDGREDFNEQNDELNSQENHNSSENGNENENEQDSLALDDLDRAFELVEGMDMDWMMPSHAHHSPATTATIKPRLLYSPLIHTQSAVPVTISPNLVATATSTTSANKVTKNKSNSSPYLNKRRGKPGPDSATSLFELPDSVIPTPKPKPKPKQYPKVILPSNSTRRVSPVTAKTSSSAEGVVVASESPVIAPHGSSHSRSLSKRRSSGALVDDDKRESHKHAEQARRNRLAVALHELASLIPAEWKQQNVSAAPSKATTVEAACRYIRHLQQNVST
CTAAATCTGCGTTAGCTCGTGGTGAGTATTTGCGCG: 10700 a.u.
TGCGCAACAACTTGGTTAGTGGGTGTATGTCTAGAA: 4810 a.u.
CGTCCTAGTGATTGCTGAGTGGGTGCCATGAGGAAG: 6880 a.u.
AAATTACTAAGTTGTCACGGAACTTACCCCGTATGA: 3430 a.u.
TACACCCAGTCATCCGGCGTGACGGGATCTCCACTT: 4890 a.u.
CCGGAAGTGAAAGAAGACGTGATGGGCTATGCGCTA: 3930 a.u.
ATTGAGAATAGTCATCAGGTGTAATGGAAGCTAATT: 4130 a.u.
CGTCCTAGTGATTTTCACGTGAAATCCATGAGGAAG: 7490 a.u.
CTTTCCCGATCTTGTTCAGTGGGTGTAGCACATTTG: 4730 a.u.
TGCGCAACAACTTGTTTGGTGGGTGTATGTCTAGAA: 4080 a.u.
TGTAATAGTTGCCATCACGTCGACAGCTTCAATGTT: 4880 a.u.
GCAGCCGCAGCGAGTCACGTGGTCGCGCAAATGATG: 19200 a.u.
CTAGAGCCACAAAAGCACGTGCTTTGGGTGCTTTGG: 18100 a.u.
AAGCCACTTTTCCATCACGTTTCTTAGCGTTATTCC: 12200 a.u.
AGCAAGAAAACCCATCACGTGTGGATTCGGACCAAA: 17100 a.u.
TCAAATTAGACAATTGGCGTGGCCGGACGAGATCGC: 3700 a.u.
CGTCCTAGTGATTGGCGTGTGGGTGCCATGAGGAAG: 8090 a.u.

Block 4
Target: CCNB1, cyclin fold, Cln2 fusion (human)
Technique: yeast growth competition, sequencing
Medium: yeast
Notes: weak parent motif
Reference: not given
Reading: higher = stronger binding
Endpoint: normalised enrichment score
Starting sequence: SLBP docking peptide (human); ARYKRKLLINDFG
G13N: 0.377
D11W: 0.298
L8F: -0.119
L7K: 0.114
R5K: 0.966
R2N: 0.679
K4E: 0.114
D11I: -0.451
K4H: 1.64
K6N: 1.24
N10G: 1.65
N10A: 0.0621
R5G: 0.234

Repeated from above (block 2):
2'F-ANA at 5 6 8 9 10 12 14 15: 50.8 a.u.
2'F-ANA at 1 5 13 14 15: 44.8 a.u.
2'F-ANA at 1 2 3 5 7 8 10 11 12 14 15: 50.3 a.u.
2'F-ANA at 1 3 5 6 9 14: 55.9 a.u.
2'F-ANA at 1 3 4 6 10 11 13 15: 56.2 a.u.
